Results collected from several papers.
A part holds a random share of what one study measured. Changes are numbered by the printed parent chain.

Study 1 — technique: RNA Bind-n-Seq; molecule type: RNA; matrix: in vitro; concentration: not given; notes: RNA with constant flanks, ends assumed; baseline: input RNA pool; reading: higher = stronger binding; quantity: bound/input enrichment
Target: RING finger protein unkempt homolog, zinc fingers 1-6, GST-SBP tag (UNK, Homo sapiens, UniProt Q9C0B0, residues 30-357)
Constant ends, left off below: GGGAGUUCUACAGUCCGACGAUC … CAACAGAGGAUUGAGCAUCA
Construct (chain): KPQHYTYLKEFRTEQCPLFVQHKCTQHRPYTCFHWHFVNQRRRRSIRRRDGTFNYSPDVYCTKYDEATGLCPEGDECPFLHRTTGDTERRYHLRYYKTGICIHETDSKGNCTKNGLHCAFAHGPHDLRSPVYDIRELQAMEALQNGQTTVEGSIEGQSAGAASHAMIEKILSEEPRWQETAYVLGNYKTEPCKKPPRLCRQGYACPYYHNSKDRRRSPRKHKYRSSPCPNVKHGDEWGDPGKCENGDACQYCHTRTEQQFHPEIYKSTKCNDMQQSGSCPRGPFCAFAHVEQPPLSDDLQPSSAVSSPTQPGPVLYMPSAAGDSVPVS
CCUAAGCAGACCUCCUCCUACAACAUCCCUGCCUCUGCCAGCAUCUCUCGGACAUCCAUCCGCAGAUAUGACUCUUCCUUCAGGUACACAGGCAGCCCAGACAGCCUCCGGUCCCGGGUC: 0.225 ratio
GUCACCCUCAUGAUGGAUGCCACCAACAUGCCUGCCGUCAAAGCUAUCAUAUACCAGUACACCGAAGAGAUUUAUCACCGGAUCCCCAACUCAGACCCAUCAUCAAGCAAAACCAAGCAG: 0.484 ratio
UUCUUCUUCUUUGAUUCAGUUCAAGUCGUUUUCACAAUAUGUACAGCAGUUCUUGCAACAACCGCUUUUGCUUUUCUUCUUCUCCCGAUGUGCCAGUAUUUAACAAGGCCCUGCUCACCU: 0.511 ratio
CACAAGAUGGAGCAGGAAAUGACCCGGUUACAUCGCAGAGUGUCAGAGGUGGAGGCUGUGCUCCGUCAGAAGGAGGUGGAGCUGAAGGCCUCUGAGACUCAGAGAUCCCUCCUGGAGCAG: 0.087 ratio
AGUAGAGAACAAUGACCUCAUUUUAUUUUCUAUGUUAGUUAUUUAUUUCAAAAUUAACAUUUCCGUUGAUUUUUGUCUGAUAAGUCUAUGUUUUGCACUGCUAACUAUGAUGAGGGUUUA: 1.08 ratio
GCUGCAGGAAAAGAGAUUAUAUGGCAUGGGCGGACAAAAGAAGAACCAGCUCAUUACUGCCGCAUUUGUGAAGUGGAGGUUUUUGAUCUGCUUUUUGUCACUAAUGAGAGUAAUUCACGA: 0.136 ratio
AUUGCAACAAAUGGAGAAAGUGCUGUGGUACAAUUACCAAAAAAUGGCCCAAUUUAUGAUGCCGUUUGGAAUUCCAGUUCUACUGAGUUUUGCGCUGUUUAUGGUUUUAUGCCUGCGAAA: 0.0772 ratio
UUCCCAAAUCGUUUUUCCAAUCGCCCAAUAACUGGACCUCACAUCGCAUACACAGAGGCUGUCCGCGACACUCAGAUCAUGCUGAAAUGGACGUAUGUUCCAUCAAGUAACAAUAAUACU: 0.392 ratio
GAAUCAAGGAUAUCAUUUGAGGAUGUGGCUGUAGACUUCUCCUGGGACCAGUGGCAGCUGCUCCGCCCUACUCAAAAGAGUUUAUACAGAGAUGUGAUGUUGGAGAACUGCAGCAGCCUU: 0.293 ratio
ACGAACUUUCAGGCAACACCGUUAUUGAACGACCCAGACAGAUCUGUCCUUAUGUAAUUGCCGCUUUUCGAUACAGGGAAUCUAAAACUAUGGCACCACCAGCUCAUAAAAGCAUACUUG: 0.215 ratio
AGAGAAAUGAGAAAGAAUCUCACACAAGAUGAGAUGCAAAGAAUGUCUACUAGAGUCCUUUCCGCCACUCUUUCCAUCCCUAUUACUCCUGAGCGUACGGAUAUUGCUCGACUUCUGGAU: 0.29 ratio

Study 2 — technique: protein-binding microarray; molecule type: double-stranded DNA, one strand shown; matrix: in vitro; concentration: 250 nM; notes: 60-bp whole probe; added: salmon DNA 0.4 mg/ml; baseline: random background probes; reading: higher = stronger binding; quantity: log fluorescence; constant ends, left off below: GCCTAGCAC … GTCTTGATTCGCTTGACGCTGCTG
Target: Interferon regulatory factor 5, full length, phosphomimetic (IRF5, Homo sapiens, UniProt Q13568-2, residues 1-514, K96S/S451D/S453D/S456D/S462D)
TCATTTTTTTGTATTTTACTGTGCTAG: 1.54 z-score
TTAGGTTTCCTACTGGTTTAGTGCTAG: 0.451 z-score
GCCAAACACCCACATTCACCGTGCTAG: -0.0937 z-score
AACGGACTGGGACTGGGGACGTGCTAG: -0.528 z-score
GACGGTTTCGGTTTCGGGTCGTGCTAG: 10.8 z-score
GACGAACTGGGGTTTCGATACGTGCTA: 5.22 z-score
TTAGGTTGCCTTTTCCTTTAGTGCTAG: 0.472 z-score
TTAGGACTGGGTATCGGTGAGTGCTAG: 1.81 z-score
GACGCTTTCAGTTCCGAGACGTGCTAG: 4.03 z-score
GACGGTATCCTTATCCTGCCGTGCTAG: -0.0053 z-score
TTGTTTTTTTCTATATGCAAGTGCTAG: 2.28 z-score
TTAGGTCCCCTTTTCCTTTAGTGCTAG: -0.0873 z-score
GCCGGACTGCTTCTCCTGACGTGCTAG: -0.657 z-score
GACGGTCTCGGCCTCGGGACGTGCTAG: -0.406 z-score
CGTCATTTCACAGTTAACCAGTGCTAG: 0.911 z-score
TTAGGACTGGACACTTGGTTAGTGCTA: -0.124 z-score
TCTAATATTCATTTTATTCAGTGCTAG: 1.15 z-score
GACGGTTTCGGACTGGGGCCGTGCTAG: 3.57 z-score
GACGGACTGGGAGTGGGGACGTGCTAG: -0.45 z-score

Study 3 — target: CRIPT, C-terminal peptide; technique: DHFR complementation, deep sequencing; matrix: yeast; baseline: wild type; reading: higher = weaker binding; quantity: binding free energy change
Notes: single substitutions, model-inferred values
Starting sequence: ERBIN, PDZ domain 1 (human); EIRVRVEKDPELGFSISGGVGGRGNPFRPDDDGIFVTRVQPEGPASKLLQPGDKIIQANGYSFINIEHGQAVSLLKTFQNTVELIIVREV; partner TKNYKQTSV
L84H: 0.92 kcal/mol
P26L: 1.02 kcal/mol
V82T: 0.173 kcal/mol
A71C: 0.115 kcal/mol
T37D: 1.15 kcal/mol
G43I: 1.13 kcal/mol
A58Y: 1.21 kcal/mol
V72R: 1.61 kcal/mol
I64E: -0.0115 kcal/mol
Q70I: 0.062 kcal/mol
F35E: 0.515 kcal/mol
L48S: 0.174 kcal/mol
R28H: -0.0364 kcal/mol
G43P: 0.465 kcal/mol
E11V: -0.823 kcal/mol
I85F: -0.0281 kcal/mol
I66R: 0.341 kcal/mol
N65F: 0.122 kcal/mol
N25Q: 0.694 kcal/mol
P29R: 0.144 kcal/mol
D9P: 1.5 kcal/mol
P51T: 0.268 kcal/mol
A45G: 0.362 kcal/mol
Q50R: 0.0625 kcal/mol

Study 4 — target: CCNA2, cyclin fold, Cln2 fusion (human); technique: yeast growth competition, sequencing; matrix: yeast; notes: strong parent motif; baseline: not given; reading: higher = stronger binding; quantity: normalised enrichment score
Starting sequence: DBF4B docking peptide (human); LGYLYLLLTQSLW
L12A: 1.21
L6A: 1.09
L4A: 1.3
Y5A: 1.65
G2A: 0.969
L7A: 1.73
Q10A: 1.82

Study 5 — technique: DHFR PCA, deep sequencing; matrix: yeast; added: (+)-ABA 2500 µM; baseline: wild-type fitted maximum; reading: higher = stronger binding; quantity: relative binding score
Target: ABI1, truncated, D143A, DHFR fusion (Arabidopsis thaliana)
Notes: methotrexate growth selection, single substitutions
Starting sequence: PYL1, truncated, DHFR fusion (Arabidopsis thaliana); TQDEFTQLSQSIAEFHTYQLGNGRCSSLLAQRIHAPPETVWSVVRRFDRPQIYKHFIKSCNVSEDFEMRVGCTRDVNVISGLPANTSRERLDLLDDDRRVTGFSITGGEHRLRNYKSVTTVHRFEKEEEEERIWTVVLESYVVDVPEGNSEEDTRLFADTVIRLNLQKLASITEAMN
K54F: 5.27%
G81V: 75.3%
R88E: 93.6%
E67N: 92.3%
D92T: 97.8%
I133Y: 98.5%
E89I: 8.41%
S27D: 97%
F15D: 69.4%
P36L: 96.9%
I105P: -20.3%

Study 6 — technique: protein binding microarray; molecule type: double-stranded DNA, one strand shown; matrix: in vitro; concentration: not given; baseline: not given; reading: higher = stronger binding; quantity: E-score
Target: Histone acetyltransferase KAT6A, winged helix 1, GST fusion (KAT6A, Homo sapiens, UniProt Q92794, residues 1-85)
Notes: 8-mer, flanks averaged, mean of 2 arrays, mostly near background
Construct (chain): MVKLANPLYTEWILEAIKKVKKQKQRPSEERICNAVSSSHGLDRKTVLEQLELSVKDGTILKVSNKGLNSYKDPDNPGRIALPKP
GAGCTAAA: -0.197
AGAATAAG: -0.264
AGCTGGAT: -0.222
CAAGAGCA: -0.115
CCTAAAGG: -0.0244
ACGGCATC: 0.367
GTGTTGGA: -0.291
GACGCCGA: 0.25
AAACCCAG: -0.304
GCAAACGC: 0.0926
GCCATCAA: -0.0571
AATGCTGC: -0.147
CATCTTGC: -0.0615
AAGGTACG: 0.153
GCGAAAAC: 0.138
GCCTAAGC: -0.0313
CTCCAAGC: -0.109
CTGGCAAG: -0.219
GTCCTTCA: -0.0698
ACGAGGAC: -0.109
CGCCATAG: 0.111
ATTCTCTC: -0.0824
TCCAATAA: 0.0302
GTACAACA: -0.171
ACAGCCAT: -0.0285

For quick reference, copied from above (study 6):
GCAAACGC: 0.0926
GCCATCAA: -0.0571
AATGCTGC: -0.147
CATCTTGC: -0.0615
AAGGTACG: 0.153
GCGAAAAC: 0.138
GCCTAAGC: -0.0313
